Published values from different studies.
Protocols differ between the studies behind these lines.

SMILES | test | system | setting | measurement | value
CC#CC(=O)N[C@H]1CCCN(c2c(F)cc(C(N)=O)c3[nH]c(C)c(C)c23)C1 |  | healthy volunteers | oral, 10 mg once daily, 14 days | subjects with adverse events | 33.3%
NS(=O)(=O)c1cc(C(=O)O)c(NCc2ccco2)cc1Cl | refers to: vascular disorders | healthy men | oral, 8 days, treatment-emergent, crossover trial | subjects with adverse event | 0%
C=CC(=O)NC1CCN(c2ncc3ncnc(Nc4ccc(Oc5ccc6c(c5)ncn6C)c(C)c4)c3n2)CC1 |  | healthy male volunteers | oral, 60 mg, at least 1 treatment-emergent event | subjects with adverse events | 88%
O=C(Nc1cnccc1Cl)N1CCN(Cc2ccc3c(c2)OC(F)(F)O3)CC1 | multiple ascending dose | young men | 10 mg, at least 1 treatment-emergent event | subjects with adverse events | 100%
Cc1c(Cl)c(C)[n+]([O-])c(Cl)c1-c1noc(-c2cc(O)c(O)c([N+](=O)[O-])c2)n1 |  | healthy subjects | oral, dose not given, all subjects | subjects with any serious TEAE | 0%
C[C@H]1CNCCCN1S(=O)(=O)c1cccc2cncc(F)c12 |  | healthy adult men | ocular, 1 drop per eye twice daily, 8 days, adverse drug reaction | subjects with conjunctival hyperaemia | 100%
CC(C)n1c(Nc2cccnc2)nc2cnc(Nc3ccc(N4CCN(C)CC4)cc3)nc21 | refers to: hemoglobin increased | healthy male subjects | oral, 100 mg, study, with: gemfibrozil | subjects with adverse event | 7.1%
CC[C@H](C)[C@H](NC(=O)[C@H](Cc1ccccc1)NC(=O)[C@H](CCC(=O)O)NC(=O)[C@H](CCCCNC(=O)COCCOCCNC(=O)COCCOCCNC(=O)CC[C@H](NC(=O)CCCCCCCCCCCCCCCCC(=O)O)C(=O)O)NC(=O)[C@H](C)NC(=O)[C@H](C)NC(=O)[C@H](CCC(N)=O)NC(=O)CNC(=O)[C@H](CCC(=O)O)NC(=O)[C@H](CC(C)C)NC(=O)[C@H](Cc1ccc(O)cc1)NC(=O)[C@H](CO)NC(=O)[C@H](CO)NC(=O)[C@@H](NC(=O)[C@H](CC(=O)O)NC(=O)[C@H](CO)NC(=O)[C@@H](NC(=O)[C@H](Cc1ccccc1)NC(=O)[C@@H](NC(=O)CNC(=O)[C@H](CCC(=O)O)NC(=O)C(C)(C)NC(=O)[C@@H](N)Cc1cnc[nH]1)[C@@H](C)O)[C@@H](C)O)C(C)C)C(=O)N[C@@H](C)C(=O)N[C@@H](Cc1c[nH]c2ccccc12)C(=O)N[C@@H](CC(C)C)C(=O)N[C@H](C(=O)N[C@@H](CCCNC(=N)N)C(=O)NCC(=O)N[C@@H](CCCNC(=N)N)C(=O)NCC(=O)O)C(C)C |  | Japanese subjects | 1.0 mg, metabolism and nutrition disorders | subjects with adverse events | 37.5%
O=C(O)CCC(=O)O.[2H]C([2H])([2H])Oc1cc(C)c2[nH]ccc2c1CN1CC[C@@H](C2CC2)C[C@H]1c1ccc(C(=O)O)cc1 | multiple ascending dose | healthy Chinese subjects | 100 mg twice daily | subjects with reduced potassium TEAE | 0%
CC(C)c1nc(N(C)S(C)(=O)=O)nc(-c2ccc(F)cc2)c1/C=C/[C@@H](O)C[C@@H](O)CC(=O)O | refers to: thirst | healthy men | oral, dose not given, 8 days, treatment-emergent, crossover trial | subjects with adverse event | 4.5%
CC[C@H](C)[C@H](NC(=O)[C@H](Cc1ccccc1)NC(=O)[C@H](CCC(=O)O)NC(=O)[C@H](CCCCNC(=O)COCCOCCNC(=O)COCCOCCNC(=O)CC[C@H](NC(=O)CCCCCCCCCCCCCCCCC(=O)O)C(=O)O)NC(=O)[C@H](C)NC(=O)[C@H](C)NC(=O)[C@H](CCC(N)=O)NC(=O)CNC(=O)[C@H](CCC(=O)O)NC(=O)[C@H](CC(C)C)NC(=O)[C@H](Cc1ccc(O)cc1)NC(=O)[C@H](CO)NC(=O)[C@H](CO)NC(=O)[C@@H](NC(=O)[C@H](CC(=O)O)NC(=O)[C@H](CO)NC(=O)[C@@H](NC(=O)[C@H](Cc1ccccc1)NC(=O)[C@@H](NC(=O)CNC(=O)[C@H](CCC(=O)O)NC(=O)C(C)(C)NC(=O)[C@@H](N)Cc1cnc[nH]1)[C@@H](C)O)[C@@H](C)O)C(C)C)C(=O)N[C@@H](C)C(=O)N[C@@H](Cc1c[nH]c2ccccc12)C(=O)N[C@@H](CC(C)C)C(=O)N[C@H](C(=O)N[C@@H](CCCNC(=N)N)C(=O)NCC(=O)N[C@@H](CCCNC(=N)N)C(=O)NCC(=O)O)C(C)C |  | type 2 diabetes patients | dose not given | subjects with discontinuation AEs | 6.7%
NCCONC(=O)[C@@H]1CC[C@@H]2CN1C(=O)N2OS(=O)(=O)O |  | healthy Chinese male subjects | intravenous, 1 g | subjects with serious adverse events | 0%
Cn1cc(Nc2nc(N)nc(-c3cccc(-n4ccc5cc(C6CC6)cc(F)c5c4=O)c3CO)n2)cn1 |  | healthy subjects | oral, 300 mg tablet, fasted | subjects with nausea | 0%
Cc1nc2ccc(F)cc2n1-c1nc(N)c(F)c(Nc2ccc(C(F)(F)F)cc2)n1 |  | leiomyosarcoma patients | 300 mg, with: dacarbazine 1000 mg/m2 | subjects with neutropenia | 47.6%
COc1c(N2C[C@@H]3CCCN[C@@H]3C2)c(F)cc2c(=O)c(C(=O)O)cn(C3CC3)c12 |  | healthy volunteers | 400 mg | subjects with any adverse event | 48%

A few entries again:
SMILES | test | system | setting | measurement | value
CC(C)n1c(Nc2cccnc2)nc2cnc(Nc3ccc(N4CCN(C)CC4)cc3)nc21 | refers to: hemoglobin increased | healthy male subjects | oral, 100 mg, study, with: gemfibrozil | subjects with adverse event | 7.1%
